Assay results of several laboratories.
Compare with care: the assays were run in different laboratories. ± marks the error that the study gave.
T1: RNA, hairpin (Homo sapiens); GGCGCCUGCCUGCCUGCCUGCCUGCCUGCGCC

| Compound | target | assay | setting | scale | quantity | value |
| --- | --- | --- | --- | --- | --- | --- |
| CN1CCC=C(c2cc(F)cc3[nH]ccc23)C1 | HTR2B (Homo sapiens, UniProt P41595) | β-arrestin recruitment, agonist | – | – | Emax | 29% |
| CC[C@H](C)[C@H](NC(=O)[C@H](CCCNC(=N)N)NC(=O)NC[C@H](CCC(N)=O)NC(=O)NC[C@@H](NC(=O)NC[C@H](CCCNC(=N)N)NC(=O)NC[C@H](Cc1ccc2ccccc2c1)NC(=O)[C@H](CCCCN)NC(=O)[C@H](CCC(=O)O)NC(C)=O)C(c1ccccc1)c1ccccc1)C(=O)N[C@@H](C)C(N)=O | Histone chaperone ASF1A (Homo sapiens, UniProt Q9Y294) | isothermal titration calorimetry | concentration not given, pH 7.5, 20 °C | – | binding enthalpy | -3.5 ± 0.6 kcal/mol |
| c1ccc2c(NCCCCCCCCCCNc3ccnc4ccccc34)ccnc2c1 | ADRA2A (Homo sapiens, UniProt P08913, N108A) | – | – | reference: N93A over wild type | affinity increase | 1.5 fold |
| CC[C@H](C)[C@H](NC(=O)[C@H](CCCNC(=N)N)NC(=O)[C@H](CCCCN)NC(=O)[C@@H](NC(=O)[C@H](C)NC(=O)[C@H](CCCNC(=N)N)NC(=O)[C@H](CCC(N)=O)NC(=O)[C@H](CO)NC(=O)[C@H](CCCCN)NC(=O)[C@H](CC(N)=O)NC(=O)[C@@H](N)CCCNC(=N)N)[C@@H](C)O)C(=O)N[C@@H](COP(=O)(O)O)C(=O)N[C@@H](Cc1c[nH]cn1)C(=O)N[C@@H](CCSC)C(=O)N1CCC[C@H]1C(=O)N[C@@H](CO)C(=O)N[C@@H](CCCNC(=N)N)C(=O)N1CCC[C@H]1C(=O)N[C@@H](CCC(=O)O)C(=O)N[C@@H](CC(C)C)C(=O)N[C@@H](CO)C(=O)N[C@@H](C)C(=O)N[C@H](C(=O)N[C@@H](C)C(=O)N[C@H](C(=O)N[C@@H](CC(=O)O)C(=O)N[C@@H](CC(C)C)C(=O)N[C@@H](CCCNC(=N)N)C(=O)N[C@@H](CCCCN)C(=O)N[C@@H](CC(=O)O)C(=O)N[C@@H](CCCCN)C(=O)N[C@@H](C)C(=O)N[C@@H](CCCCN)C(=O)N[C@@H](COP(=O)(O)O)C(=O)N[C@@H](CS)C(=O)OC)[C@@H](C)O)C(C)C | YWHAZ (Homo sapiens, UniProt P63104) | dissociation, stopped-flow fluorescence polarization | two-step model | – | koff | 9.69 s⁻¹ |
| OC[C@H]1O[C@@H](Oc2ccc(OCc3cn([C@H]4[C@H](O)[C@@H](O)[C@H](c5cn([C@H]6[C@H](O)[C@@H](O)[C@H](n7cc(COc8ccc(O[C@@H]9O[C@H](CO)[C@H](O)[C@H](O)[C@H]9O)cc8)nn7)O[C@@H]6CO)nn5)O[C@@H]4CO)nn3)cc2)[C@H](O)[C@@H](O)[C@H]1O | lecA (Pseudomonas aeruginosa, UniProt Q05097) | isothermal titration calorimetry | 298 K | – | -TΔS | 5.6 ± 0.1 kcal/mol |
| COc1ccc2nc3cc(Cl)ccc3c(NCCCCc3c(N)nc(N)nc3N)c2c1 | T1, RNA, hairpin (Homo sapiens) | MBNL1-RNA complex displacement, competitor, EMSA | apparent, no tRNA, with: MBNL1 350 nM | – | Ki | 2500 nM |
| NC(CNC(CNC(CC(=O)O)C(=O)O)C(=O)O)C(=O)O (centres unmarked) | IMP-7 metallo-beta-lactamase | – | 500 µM, 60 min, Zn-depleted buffer | – | remaining activity | 35.6 ± 2% |
| O=C1Nc2ccc(Br)cc2/C1=N/N=C/c1ccc(OCc2ccccc2)cc1 | MAOA (Homo sapiens, UniProt P21397) | enzyme activity, inhibitor | 10 µM | – | remaining activity | 87.8% |
| O=C(NCC1CO1)Oc1ccc([N+](=O)[O-])cc1 (racemic) | Epoxide hydrolase 1 (Ephx1, Rattus norvegicus, UniProt P07687) | substrate, absorbance | 50 µM, pH 9.0, 37 °C, rat enzyme | – | signal to noise ratio | 3 |
| CC[C@H](C)[C@H](NC(=O)[C@@H]1CSSC[C@H](NC(=O)[C@@H](NC(C)=O)[C@@H](C)CC)C(=O)N[C@@H](C(C)C)C(=O)N[C@@H](Cc2cn(C)c3ccccc23)C(=O)N[C@@H](CCC(N)=O)C(=O)N[C@@H](CC(=O)O)C(=O)N[C@@H](Cc2c[nH]c3ccccc23)C(=O)NCC(=O)N[C@@H](C)C(=O)N[C@@H](Cc2c[nH]cn2)C(=O)N[C@@H](CCCNC(=N)N)C(=O)N1)C(N)=O | Complement C3, C3b fragment (Homo sapiens, UniProt P01024) | SPR | 25 °C | reference: [Trp(Me)4]-Ac-compstatin | relative dissociation rate constant | 1 |
| CC(C)CC(=N)NCCC[C@H](N)C(=O)O | Nos2 (Mus musculus, UniProt P29477) | enzyme activity, inhibitor | – | – | kinact/KI | 1.45 M⁻¹ s⁻¹ |

Some of these lines once more:
| Compound | target | assay | setting | scale | quantity | value |
| --- | --- | --- | --- | --- | --- | --- |
| NC(CNC(CNC(CC(=O)O)C(=O)O)C(=O)O)C(=O)O (centres unmarked) | IMP-7 metallo-beta-lactamase | – | 500 µM, 60 min, Zn-depleted buffer | – | remaining activity | 35.6 ± 2% |
